{"data": "Published values gathered from unrelated publications", "note": "Every numbered part comes from another study and shows a few of its results, in no order."}
{"data": "Block 1", "target": "Histone acetyltransferase KAT6A, both winged helices, GST fusion (KAT6A, Homo sapiens, UniProt Q92794, residues 1-181)", "method": "protein binding microarray", "form": "double-stranded DNA, one strand shown", "medium": "in vitro", "tested at": "not given", "notes": "8-mer, flanks averaged, mean of 2 arrays, mostly near background", "relative to": "not given", "reading": "higher = stronger binding", "Residues (chain)": "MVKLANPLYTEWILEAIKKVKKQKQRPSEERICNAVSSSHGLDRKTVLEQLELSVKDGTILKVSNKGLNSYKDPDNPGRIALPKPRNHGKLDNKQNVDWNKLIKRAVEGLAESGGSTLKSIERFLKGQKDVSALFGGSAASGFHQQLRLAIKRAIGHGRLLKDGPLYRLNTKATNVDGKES"}
{"Oligonucleotide": "ATTCTAAG", "E-score": -0.124}
{"Oligonucleotide": "ATATTCAA", "E-score": 0.108}
{"Oligonucleotide": "CCGACCCC", "E-score": 0.151}
{"Oligonucleotide": "ACGCTCTG", "E-score": 0.0505}
{"Oligonucleotide": "CTAGTACC", "E-score": -0.0105}
{"Oligonucleotide": "GATTCCTA", "E-score": -0.017}
{"Oligonucleotide": "ACTATCTG", "E-score": -0.205}
{"Oligonucleotide": "CTTTTAGC", "E-score": 0.0845}
{"data": "Block 2", "target": "TAR DNA-binding protein 43, full length, His tag (TARDBP, Homo sapiens, UniProt Q13148, residues 1-414)", "method": "RNA Bind-n-Seq", "form": "RNA", "medium": "in vitro", "tested at": "20 nM", "notes": "6-mer, flanks averaged, single round", "added": "150 mM LiCl", "relative to": "input library", "reading": "higher = stronger binding"}
{"Oligonucleotide": "UUGCGU", "6-mer enrichment (R)": 1.23}
{"Oligonucleotide": "UCUUAU", "6-mer enrichment (R)": 1.01}
{"Oligonucleotide": "CGGCGA", "6-mer enrichment (R)": 0.938}
{"Oligonucleotide": "CCGGAU", "6-mer enrichment (R)": 0.886}
{"Oligonucleotide": "AGCAUC", "6-mer enrichment (R)": 0.794}
{"data": "Block 3", "target": "RNA binding protein fox-1 homolog 2, RRM domain, GST-SBP tag (RBFOX2, Homo sapiens, UniProt O43251-10, residues 100-194)", "method": "RNA Bind-n-Seq", "form": "RNA", "medium": "in vitro", "tested at": "365 nM", "notes": "natural RNA segment, single round, ends assumed", "relative to": "no-protein control", "reading": "higher = stronger binding", "shared flanks, not repeated": "GGGAGUUCUACAGUCCGACGAUC … UGGAAUUCUCGGGUGCCAA", "Construct (chain)": "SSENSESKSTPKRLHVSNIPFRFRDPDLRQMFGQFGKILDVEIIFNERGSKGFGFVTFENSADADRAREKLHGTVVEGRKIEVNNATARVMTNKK"}
{"Oligonucleotide": "ACUUUUAUGCAGCAAAUAUAUGAUUCUAGUGUCUGACUUUUGUUAAAUUCAGUAAUGCAGUUUUUAAAAACCUGUAUCUGACCCACUUUGUAAUUUUUGCUCCAAUAUCC", "RBNS enrichment (R)": 0.696}
{"Oligonucleotide": "UAAGAAAAACAGUUAACAUGAGACAAAGUUUAGGAAAAACUAAUAAAAGAAACCUGUCUUAACUUGAUGGUUUUCUUAAUUUUCUUAAGUGGGCUGUUUGUGUGUGUGUG", "RBNS enrichment (R)": 1.2}
{"Oligonucleotide": "GCCAUUCAGUAUUAAUAGAUCAUGAUUUCACUAAUCCAUCACAUUAUAGCACCAUGAGAGCUACAGUACUCUUGAAUUCUAGAGAUAGGUUUUGGUAAAUGUGAACUUGU", "RBNS enrichment (R)": 1.39}
{"Oligonucleotide": "AACCCUCACAUCAGAGUGACAUCCAGGAGGAAUAAGCUCCCAGGGCCUGUCUCAAGCUCUUCCUUACUCCCAGGCACUGUCUUAAGGCAUCUGACAUGCAUCAUCUCAUU", "RBNS enrichment (R)": 0.944}
{"Oligonucleotide": "UUCCAGGGAUUCUGGUAAAGGUGGUUUCUUGCAUCCCACUCCCCUUUUACCUUGGCUUUGACAUAGGAAAGGUAUAUUUAAAAACUUAAUCAGCUGGGCGUGGUGGCUCA", "RBNS enrichment (R)": 1.91}
{"Oligonucleotide": "UCUCCCCACGAAGGUCCCAGGGUGGCCAUUUAUACAAUCCAUUUCUGUCCUCUUUAUGGAAUGUAGUCGACGGAUAUUGCUGCACCUCAUCAGGCCAUUACAUUGUCCAU", "RBNS enrichment (R)": 1.06}
{"Oligonucleotide": "UCUCCCAAAGAACUCUACGUUAAACAUACACCAGUUUUCUUUUAUGACCUGGAGUUAGGAGUGAGUUUGUGUGUUGUUGAUAGAGCAACUCAGGUAAUUUCCAUUUCUGG", "RBNS enrichment (R)": 0.464}
{"Oligonucleotide": "AAGGACCAUUGGAAAACACAGAUUAUUUUAACGUUAUAAAAUUCACAUCAGGAGCAAAAUCACAGAUAUGAACUUAAUAAAAAUAAUGUUAUGGUUGGAGGUCACCACAA", "RBNS enrichment (R)": 0.248}
{"Oligonucleotide": "ACUGUCUGGAAGACAUGUCCCCAUGGCUGUGGGGCCGCUGCUUCUGUUUAAAUAAAAGUGGCCUGGAGCUGGCGUUUGUCGUUUCUUGCUUGGGGGACCAAAAUGUGGAG", "RBNS enrichment (R)": 0.591}
{"data": "Mixed results"}
{"Molecule": "PhoQ, residues 284 288 289 292 302 303 SSTLLI", "target": "PhoP, residues 12 14 15 18 19 HEGLL (Escherichia coli, UniProt P23836)", "test": "Sort-seq, item: YFP reporter", "system": "E. coli", "conditions": "PhoQ-PhoP variant library, added: 10 µM Mg2+", "how to read": "relative to: high Mg2+ state, higher = stronger signaling", "endpoint": "fold induction", "result": 0.971}
